# Assay results of several laboratories.
# Each line is one published result; not all experiments were run side by side. Several values in a cell are separate wells, animals, samples, runs or records. Numbers after ± are the reported error.
# YWHAZ: 14-3-3 protein zeta/delta (YWHAZ, Homo sapiens, UniProt P63104)
# Sequence of UniProt P63104 (whole entry, looked up): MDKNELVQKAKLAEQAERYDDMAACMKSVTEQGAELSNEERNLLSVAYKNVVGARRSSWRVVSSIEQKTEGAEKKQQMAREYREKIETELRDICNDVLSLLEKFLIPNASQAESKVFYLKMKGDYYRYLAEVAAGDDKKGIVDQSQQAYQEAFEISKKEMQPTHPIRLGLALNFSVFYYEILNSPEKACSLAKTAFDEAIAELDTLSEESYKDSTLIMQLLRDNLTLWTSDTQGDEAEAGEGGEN
# LRP6 E1 domain: Low-density lipoprotein receptor-related protein 6, E1 domain (LRP6, Homo sapiens, UniProt O75581)
# Sequence of UniProt O75581 (whole entry, looked up): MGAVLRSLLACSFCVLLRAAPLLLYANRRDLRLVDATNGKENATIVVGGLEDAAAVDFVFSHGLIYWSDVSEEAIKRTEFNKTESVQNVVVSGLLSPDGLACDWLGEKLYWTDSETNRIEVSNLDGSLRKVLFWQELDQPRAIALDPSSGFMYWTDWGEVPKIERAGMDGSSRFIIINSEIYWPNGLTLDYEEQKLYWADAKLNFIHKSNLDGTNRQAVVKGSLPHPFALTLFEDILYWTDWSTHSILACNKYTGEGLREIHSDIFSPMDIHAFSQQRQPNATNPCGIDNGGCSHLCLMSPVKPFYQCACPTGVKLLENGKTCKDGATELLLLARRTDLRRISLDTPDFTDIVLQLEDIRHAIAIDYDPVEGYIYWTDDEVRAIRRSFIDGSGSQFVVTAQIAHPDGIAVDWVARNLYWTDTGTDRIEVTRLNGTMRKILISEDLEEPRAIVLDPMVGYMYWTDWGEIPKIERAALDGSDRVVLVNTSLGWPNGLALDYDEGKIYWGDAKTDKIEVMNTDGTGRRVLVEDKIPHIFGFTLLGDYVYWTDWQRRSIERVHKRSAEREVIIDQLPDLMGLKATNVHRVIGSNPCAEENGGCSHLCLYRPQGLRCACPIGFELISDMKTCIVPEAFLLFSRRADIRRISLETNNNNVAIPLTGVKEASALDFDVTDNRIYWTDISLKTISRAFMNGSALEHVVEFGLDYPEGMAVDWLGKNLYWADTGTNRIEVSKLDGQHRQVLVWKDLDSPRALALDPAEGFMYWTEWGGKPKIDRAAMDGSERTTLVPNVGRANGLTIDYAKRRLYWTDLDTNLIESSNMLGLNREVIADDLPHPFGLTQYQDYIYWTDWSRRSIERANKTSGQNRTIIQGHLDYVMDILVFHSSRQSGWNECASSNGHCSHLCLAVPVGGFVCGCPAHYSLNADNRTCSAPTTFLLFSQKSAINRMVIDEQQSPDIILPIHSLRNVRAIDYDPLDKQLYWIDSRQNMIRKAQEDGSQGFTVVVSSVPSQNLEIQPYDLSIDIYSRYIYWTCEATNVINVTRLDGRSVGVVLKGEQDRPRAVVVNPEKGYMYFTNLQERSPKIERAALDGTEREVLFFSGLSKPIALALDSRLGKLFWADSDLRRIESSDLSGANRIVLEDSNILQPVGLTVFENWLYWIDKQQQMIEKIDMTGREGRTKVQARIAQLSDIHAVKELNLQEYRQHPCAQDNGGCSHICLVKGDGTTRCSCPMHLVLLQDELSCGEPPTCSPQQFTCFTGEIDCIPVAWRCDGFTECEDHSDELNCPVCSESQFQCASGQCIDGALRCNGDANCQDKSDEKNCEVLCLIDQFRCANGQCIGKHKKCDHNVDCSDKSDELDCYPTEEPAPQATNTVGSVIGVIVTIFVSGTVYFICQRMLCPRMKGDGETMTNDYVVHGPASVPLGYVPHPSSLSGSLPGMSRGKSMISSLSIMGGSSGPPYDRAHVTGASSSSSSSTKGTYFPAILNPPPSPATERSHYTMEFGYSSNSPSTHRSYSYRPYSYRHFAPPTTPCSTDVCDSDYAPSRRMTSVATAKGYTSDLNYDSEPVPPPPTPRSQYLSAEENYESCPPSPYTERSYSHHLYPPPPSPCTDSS
# F-box only protein 22: F-box only protein 22 (Homo sapiens, UniProt Q8NEZ5)
# Sequence of UniProt Q9H2X3 (whole entry, looked up): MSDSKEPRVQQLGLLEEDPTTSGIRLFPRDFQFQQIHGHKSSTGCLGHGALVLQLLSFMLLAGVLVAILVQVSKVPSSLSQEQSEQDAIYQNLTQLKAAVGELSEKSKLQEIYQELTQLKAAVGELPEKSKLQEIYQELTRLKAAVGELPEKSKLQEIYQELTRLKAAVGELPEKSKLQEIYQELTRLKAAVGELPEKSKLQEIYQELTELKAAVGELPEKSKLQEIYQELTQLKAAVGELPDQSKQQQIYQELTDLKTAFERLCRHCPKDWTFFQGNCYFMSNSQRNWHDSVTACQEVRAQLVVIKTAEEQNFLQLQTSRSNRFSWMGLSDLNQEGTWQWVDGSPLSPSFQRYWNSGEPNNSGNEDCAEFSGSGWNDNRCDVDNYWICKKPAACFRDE
# Sequence of UniProt Q8NEZ5 (whole entry, looked up): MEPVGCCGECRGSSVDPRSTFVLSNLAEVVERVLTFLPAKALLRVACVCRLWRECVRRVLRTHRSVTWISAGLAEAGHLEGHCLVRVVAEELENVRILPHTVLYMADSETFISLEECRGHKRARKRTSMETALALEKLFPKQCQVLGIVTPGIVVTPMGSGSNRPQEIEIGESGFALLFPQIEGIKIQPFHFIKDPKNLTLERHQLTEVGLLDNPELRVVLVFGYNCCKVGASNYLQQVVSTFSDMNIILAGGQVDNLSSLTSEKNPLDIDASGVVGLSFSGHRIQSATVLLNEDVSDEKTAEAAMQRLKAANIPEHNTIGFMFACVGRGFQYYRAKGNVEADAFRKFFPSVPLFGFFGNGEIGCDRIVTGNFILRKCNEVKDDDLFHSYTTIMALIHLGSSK
# Sequence of UniProt Q9H7M9 (whole entry, looked up): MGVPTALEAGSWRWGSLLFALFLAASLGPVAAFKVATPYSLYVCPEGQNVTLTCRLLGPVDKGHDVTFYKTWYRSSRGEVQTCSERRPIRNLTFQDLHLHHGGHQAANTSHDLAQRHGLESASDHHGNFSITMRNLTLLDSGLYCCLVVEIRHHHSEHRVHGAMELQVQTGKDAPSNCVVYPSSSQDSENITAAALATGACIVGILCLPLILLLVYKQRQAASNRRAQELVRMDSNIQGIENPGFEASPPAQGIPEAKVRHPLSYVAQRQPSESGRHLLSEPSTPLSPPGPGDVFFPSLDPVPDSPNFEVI
# Sequence of UniProt P46108 (whole entry, looked up): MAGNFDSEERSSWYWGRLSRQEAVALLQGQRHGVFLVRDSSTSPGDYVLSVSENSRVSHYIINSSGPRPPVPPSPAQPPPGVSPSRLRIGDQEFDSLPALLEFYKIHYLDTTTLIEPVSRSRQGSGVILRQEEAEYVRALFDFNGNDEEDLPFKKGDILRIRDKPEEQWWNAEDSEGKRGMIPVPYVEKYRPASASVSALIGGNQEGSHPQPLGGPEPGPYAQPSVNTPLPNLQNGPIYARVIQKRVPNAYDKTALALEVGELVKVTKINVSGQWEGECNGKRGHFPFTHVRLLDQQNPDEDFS
# Sequence of UniProt Q02750 (whole entry, looked up): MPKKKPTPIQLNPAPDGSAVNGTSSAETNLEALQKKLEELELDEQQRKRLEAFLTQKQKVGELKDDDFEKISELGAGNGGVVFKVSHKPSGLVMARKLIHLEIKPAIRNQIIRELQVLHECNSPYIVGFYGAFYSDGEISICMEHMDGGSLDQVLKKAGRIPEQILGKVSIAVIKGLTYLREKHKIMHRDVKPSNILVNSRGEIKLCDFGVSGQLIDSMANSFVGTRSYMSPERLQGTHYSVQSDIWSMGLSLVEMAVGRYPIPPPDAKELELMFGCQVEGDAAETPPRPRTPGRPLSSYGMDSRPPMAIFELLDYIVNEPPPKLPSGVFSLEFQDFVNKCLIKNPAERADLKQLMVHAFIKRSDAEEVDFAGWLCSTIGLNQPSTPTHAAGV
# Sequence of UniProt P21888 (whole entry, looked up): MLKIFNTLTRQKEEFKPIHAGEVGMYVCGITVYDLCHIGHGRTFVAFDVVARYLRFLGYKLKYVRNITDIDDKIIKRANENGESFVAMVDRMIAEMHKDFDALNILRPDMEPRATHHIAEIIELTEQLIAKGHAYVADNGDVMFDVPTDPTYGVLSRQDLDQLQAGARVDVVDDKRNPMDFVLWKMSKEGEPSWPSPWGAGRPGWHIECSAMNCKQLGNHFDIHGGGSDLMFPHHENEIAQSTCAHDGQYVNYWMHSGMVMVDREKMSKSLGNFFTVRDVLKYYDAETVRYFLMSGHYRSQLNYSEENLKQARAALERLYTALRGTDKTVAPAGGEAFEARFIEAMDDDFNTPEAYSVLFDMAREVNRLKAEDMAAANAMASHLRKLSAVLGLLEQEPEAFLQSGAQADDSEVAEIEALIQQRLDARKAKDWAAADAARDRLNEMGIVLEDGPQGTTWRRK
# Sequence of UniProt P18847 (whole entry, looked up): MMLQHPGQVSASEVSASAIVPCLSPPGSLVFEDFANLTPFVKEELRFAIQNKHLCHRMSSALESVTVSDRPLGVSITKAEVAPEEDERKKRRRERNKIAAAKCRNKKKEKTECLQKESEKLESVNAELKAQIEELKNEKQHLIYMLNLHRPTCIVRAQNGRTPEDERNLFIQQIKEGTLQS
# Sequence of UniProt Q15172 (whole entry, looked up): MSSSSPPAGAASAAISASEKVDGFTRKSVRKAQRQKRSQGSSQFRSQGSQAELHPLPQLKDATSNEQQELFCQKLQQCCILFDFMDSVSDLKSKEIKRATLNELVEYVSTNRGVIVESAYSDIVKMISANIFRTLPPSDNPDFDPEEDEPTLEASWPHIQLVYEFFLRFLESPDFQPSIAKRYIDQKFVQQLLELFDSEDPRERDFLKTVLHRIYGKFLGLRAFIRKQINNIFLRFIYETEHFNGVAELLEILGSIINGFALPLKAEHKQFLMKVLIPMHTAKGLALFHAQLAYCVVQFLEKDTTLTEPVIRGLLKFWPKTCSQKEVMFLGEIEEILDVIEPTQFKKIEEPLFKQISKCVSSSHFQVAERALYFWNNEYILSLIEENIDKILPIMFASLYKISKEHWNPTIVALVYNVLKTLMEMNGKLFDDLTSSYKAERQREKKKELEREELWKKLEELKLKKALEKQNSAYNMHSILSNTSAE
# Sequence of UniProt P97287 (152-308, looked up): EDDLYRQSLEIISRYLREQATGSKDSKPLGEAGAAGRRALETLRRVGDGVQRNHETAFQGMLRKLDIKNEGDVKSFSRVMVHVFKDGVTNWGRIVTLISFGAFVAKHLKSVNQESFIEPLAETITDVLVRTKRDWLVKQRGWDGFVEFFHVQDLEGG
SMILES,target,observed,technique,pH,temperature,notes,Kd
CCCCCCCCCCCCCCCCOC[C@H](COP(=O)([O-])OCC[N+](C)(C)C)OC(C)=O,"Cyclic AMP-dependent transcription factor ATF-3 (ATF3, Homo sapiens, UniProt P18847)",binding,,,,,3.24 µM
CC(C)C[C@H](NC(=O)[C@H](CCCNC(=N)N)NC(=O)[C@H](CC(C)C)NC(=O)[C@H](CO)NC(=S)Nc1ccc2c(c1)C(=O)OC21c2ccc(O)cc2Oc2cc(O)ccc21)C(=O)N[C@@H](CCCCN)C(=O)N[C@@H](CS)C(=O)NCC(=O)N[C@@H](CCP(=O)(O)O)C(=O)NCC(=O)N1CCC[C@H]1C(=O)N[C@H](C(=O)N[C@@H](Cc1c[nH]c2ccccc12)C(=O)N[C@@H](CC(C)C)C(=O)N[C@H](C(=O)N1CCC[C@H]1C(=O)N[C@@H](CCCNC(=N)N)C(=O)O)C(C)C)C(C)C,YWHAZ,binding,fluorescence anisotropy,pH 7.5,,FITC-labelled phosphopeptide titration,70.7 µM
CSCC[C@H](NC(=O)CNC(=O)[C@H](CCCNC(=N)N)NC(=O)[C@H](C)NC(=O)[C@@H](NC(=O)[C@H](CCC(N)=O)NC(=O)[C@H](Cc1ccc(OP(=O)(O)O)cc1)NC(=O)[C@H](C)NC(=O)[C@H](CS)NC(=O)[C@H](CO)NC(=O)[C@@H](NC(=O)[C@H](CC(C)C)NC(=O)[C@H](CC(=O)O)NC(=O)[C@H](CCCCN)NC(=O)[C@H](CO)NC(=O)[C@H](CO)NC(=O)c1ccc2c(c1)C(=O)OC21c2ccc(N(C)C)cc2Oc2cc(N(C)C)ccc21)C(C)C)C(C)C)C(=O)N[C@@H](CCC(=O)O)C(=O)N[C@@H](CC(=O)O)C(=O)O,"Adapter molecule crk, SH2 domain (Homo sapiens, UniProt P46108)",binding,,,,,0.26 µM
CC(C)C[C@@H]1NC(=O)[C@@H]2CSSC[C@@H](C(=O)NCC(=O)O)NC(=O)[C@H](Cc3ccccc3)NC(=O)CNC(=O)[C@H](CC(N)=O)NC(=O)[C@@H]3CCCN3C(=O)CNC(=O)[C@@H]3CSSC[C@H](NC(=O)[C@H](CC(C)C)NC(=O)[C@H](Cc4c[nH]cn4)NC(=O)[C@H](Cc4c[nH]cn4)NC(=O)[C@H](CCCCN)NC(=O)[C@H](C(C)C)NC(=O)[C@H](Cc4ccc(O)cc4)NC(=O)[C@H](CC(N)=O)NC(=O)[C@H](Cc4c[nH]cn4)NC(=O)[C@H](CO)NC(=O)[C@H](CCC(N)=O)NC(=O)[C@@H](NC(=O)CN)CSSC[C@H](NC(=O)CNC(=O)[C@H](C)NC1=O)C(=O)N[C@@H](C(C)C)C(=O)N3)C(=O)N[C@@H](CCCCN)C(=O)N[C@@H](CCC(N)=O)C(=O)N[C@@H](CC(=O)O)C(=O)N[C@@H](CO)C(=O)N[C@@H](CC(=O)O)C(=O)N2,LRP6 E1 domain,binding,SPR,pH 7.5,,,0.00296 µM
CC1CC(=O)N[C@@H](CC(=O)O)C(=O)N2CC(F)C(F)[C@H]2C(=O)N[C@@H](CCC(=O)O)C(=O)N[C@@H]([C@@H](C)O)C(=O)NCC(=O)N[C@@H](CCC(=O)O)C(=O)N1 (stereo partly drawn),"KEAP1 (Homo sapiens, UniProt Q14145)",binding,MST,,,,0.0409 µM
CC[C@H](NC(=O)[C@H](CCC(=O)O)NC(=O)[C@H](CCCNC(=N)N)NC(=O)[C@H](C)NC(=O)[C@H](Cc1c[nH]c2ccccc12)NC(=O)[C@H](CCC(=O)O)NC(=O)[C@H](CCC(=O)O)NC(=O)[C@H](CCC(=O)O)NC(C)=O)C(=O)NCC(=O)N[C@@H](C)C(=O)N[C@@H](CCC(N)=O)C(=O)N[C@@H](CC(C)C)C(=O)N[C@@H](CCCNC(=N)N)C(=O)N[C@@H](CCCNC(=N)N)C(=O)N[C@@H](C)C(=O)N[C@@H](C)C(=O)N[C@@H](CC(=O)O)C(=O)N[C@@H](CC(=O)O)C(=O)N[C@@H](CC(C)C)C(=O)N[C@@H](CC(N)=O)C(=O)N[C@@H](C)C(=O)N[C@@H](CCC(N)=O)C(=O)N[C@@H](Cc1ccc(O)cc1)C(=O)N[C@@H](CCC(=O)O)C(=O)N[C@@H](CCCNC(=N)N)C(=O)N[C@@H](CCCNC(=N)N)C(=O)N[C@@H](CCCNC(=N)N)C(N)=O,"Induced myeloid leukemia cell differentiation protein Mcl-1 homolog, residues 152-308 (Mus musculus, UniProt P97287)",binding,SPR,,,0.2% DMSO,0.011 µM
CC(=O)N[C@@H](CCCNC(=N)N)C(=O)N[C@H](C(=O)N1CCC[C@H]1C(=O)N[C@@H](COP(=O)(O)O)C(=O)N[C@@H](CC(C)C)C(=O)N1CCC[C@H]1C(=O)N[C@@H](C(=O)N1CCC[C@H]1C(c1ccccc1)c1ccccc1)C(C)C)[C@@H](C)O,YWHAZ,,isothermal titration calorimetry,,,,5.65 ± 3.19 µM
CC(C)C[C@H](NC(=O)[C@H](CO)NC(=O)CNC(=O)[C@H](Cc1ccccc1)NC(=O)[C@H](CC(N)=O)NC(=O)[C@H](Cc1c[nH]c2ccccc12)NC(=O)[C@H](Cc1c[nH]c2ccccc12)NC(=O)CN)C(=O)N[C@H](C(=O)N[C@@H](CO)C(=O)N1CCC[C@H]1C(=O)N[C@H](C(=O)O)[C@@H](C)O)[C@@H](C)O,"V-type immunoglobulin domain-containing suppressor of T-cell activation, IgV domain (VSIR, Homo sapiens, UniProt Q9H7M9)",binding,microscale thermophoresis,,,,9.64 µM
CC[C@H](C)[C@@H]1NC(=O)[C@@H](C)NC(=O)[C@H](CCC(=O)N[C@@H](CCCCN)C(N)=O)NC(=O)[C@@H](C)NC(=O)[C@@H](C)NC(=O)[C@H](Cc2c[nH]c3ccccc23)NC(=O)[C@H](Cc2ccc(O)cc2)NC(=O)[C@H](CCCNC(=N)N)NC(=O)[C@H](Cc2ccc(F)cc2)NC1=O,"cysS (Escherichia coli, UniProt P21888)",binding,,,,,0.7 µM
CC(C)C[C@H](NC(=O)CNC(=O)[C@H](C)NC(=O)[C@H](CC(=O)O)NC(=O)[C@H](CC(=O)O)NC(=O)[C@H](C)NC(=O)[C@@H]1CCCN1C(=O)[C@H](CCCCN)NC(=O)CNC(=O)[C@@H]1CCCN1C(=O)[C@@H]1CCCN1C(=O)[C@@H]1CCCN1C(=O)[C@H](C)NC(=O)CN)C(=O)N[C@H](C(=O)O)C(C)C,F-box only protein 22,binding,SPR,,,,32 µM
CC(C)C[C@H](NC(=O)[C@H](CS)NC(=O)[C@H](CC(=O)O)NC(=O)[C@H](C)NC(=O)[C@H](CO)NC(=O)[C@H](Cc1c[nH]cn1)NC(=O)[C@H](CC(=O)O)NC(=O)[C@H](CO)NC(=O)[C@@H](NC(=O)CNC(=O)[C@H](CC(=O)O)NC(=O)[C@H](CC(=O)O)NC(=O)[C@H](CC(C)C)NC(=O)[C@@H](N)CC(=O)O)C(C)C)C(=O)N[C@@H](CC(=O)O)C(=O)N[C@@H](CCC(N)=O)C(=O)N[C@@H](CC(=O)O)C(=O)N[C@@H](CO)C(=O)O,"Beta-arrestin-1 (Arrb1, Rattus norvegicus, UniProt P29066)",,isothermal titration calorimetry,pH 8.0,298 K,,1.09 ± 0.05 µM
CC(C)C[C@H](NC(=O)CNC(=O)[C@H](C)NC(=O)[C@H](C)NC(=O)[C@H](CC(=O)O)NC(=O)[C@H](C)NC(=O)[C@@H]1CCCN1C(=O)[C@H](CCCCN)NC(=O)CNC(=O)[C@@H]1CCCN1C(=O)[C@@H]1CCCN1C(=O)[C@@H]1CCCN1C(=O)[C@H](CCC(=O)O)NC(=O)CN)C(=O)N[C@H](C(=O)O)C(C)C,F-box only protein 22,binding,SPR,,,,31 µM
CC(=O)NC1C(O)OC(CO)C(OC2OC(CO)C(OC3OC(CO)C(O)C(O)C3O)C(O)C2O)C1O (stereo not drawn),"sly (Streptococcus suis, UniProt Q55996, T481A)",binding,,,,,4.59 µM
CC[C@H](C)[C@@H]1NC(=O)[C@H](C)NC(=O)[C@H](CCC(N)=O)NC(=O)[C@@H](NC(=O)CN)CSSC[C@@H]2NC(=O)CNC(=O)[C@H](C)NC(=O)[C@H](CC(C)C)NC(=O)[C@@H]3CSSC[C@@H](C(=O)NCC(=O)O)NC(=O)[C@H](Cc4ccccc4)NC(=O)CNC(=O)[C@H](CC(N)=O)NC(=O)[C@@H]4CCCN4C(=O)CNC(=O)[C@H](CSSC[C@H](NC(=O)[C@H](CCCNC(=N)N)NC(=O)[C@H](CCC(N)=O)NC(=O)[C@H](CCCNC(=N)N)NC(=O)[C@H](CCCCN)NC(=O)[C@H](C(C)C)NC(=O)[C@H](CCCNC(=N)N)NC(=O)[C@H](CC(N)=O)NC1=O)C(=O)N[C@@H](CCCCN)C(=O)N[C@@H](CCC(N)=O)C(=O)N[C@@H](CC(=O)O)C(=O)N[C@@H](CO)C(=O)N[C@@H](CC(=O)O)C(=O)N3)NC(=O)[C@H](C(C)C)NC2=O,LRP6 E1 domain,binding,SPR,pH 7.5,,,0.0335 µM
N=C(N)NCc1cn([C@@H]2[C@@H](OCCCl)O[C@H](CO)[C@@H](O)[C@@H]2O)nn1,"C-type lectin domain family 4 member M, extracellular domain (CLEC4M, Homo sapiens, UniProt Q9H2X3)",,isothermal titration calorimetry,,,,13.3 µM and 13.6 µM and 11.3 µM
CC[C@H](C)[C@H](NC(=O)[C@@H]1CCCN1C(=O)[C@H](CO)NC(=O)[C@H](CS)NC(=O)CNC(=O)[C@H](CO)NC(=O)[C@H](Cc1ccccc1)NC(=O)[C@H](Cc1ccccc1)NC(=O)[C@H](CO)NC(=O)[C@@H](N)[C@@H](C)O)C(=O)N[C@@H](CCC(=O)O)C(=O)N[C@@H](CCC(=O)O)C(=O)N[C@@H](CC(=O)O)C(=O)N[C@@H](C)C(=O)N[C@@H](Cc1c[nH]cn1)C(=O)O,"Serine/threonine-protein phosphatase 2A 56 kDa regulatory subunit alpha isoform (Homo sapiens, UniProt Q15172)",binding,bead-based Langmuir fit,pH 7.5,,,148 µM
CC(=O)N[C@@H](CCCNC(=N)N)C(=O)N[C@H](C(=O)N1CCC[C@H]1C(=O)N[C@@H](COP(=O)(O)O)C(=O)N[C@@H](CC(C)C)C(=O)N1CCC[C@H]1C(=O)N[C@@H](C)C(=O)N1CCC[C@H]1C(c1ccccc1)c1ccccc1)[C@@H](C)O,YWHAZ,binding,ITC,,,,3.28 µM
O=C(N[C@@H]1c2ccccc2C[C@H]1N1CCCC1)c1ccc(-c2ccnc3[nH]ccc23)nc1,"MAP2K1 (Homo sapiens, UniProt Q02750)",binding,competition with immobilised ligand,,,,1.9 µM

# Repeated from above:
SMILES,target,observed,technique,pH,temperature,notes,Kd
CC(C)C[C@@H]1NC(=O)[C@@H]2CSSC[C@@H](C(=O)NCC(=O)O)NC(=O)[C@H](Cc3ccccc3)NC(=O)CNC(=O)[C@H](CC(N)=O)NC(=O)[C@@H]3CCCN3C(=O)CNC(=O)[C@@H]3CSSC[C@H](NC(=O)[C@H](CC(C)C)NC(=O)[C@H](Cc4c[nH]cn4)NC(=O)[C@H](Cc4c[nH]cn4)NC(=O)[C@H](CCCCN)NC(=O)[C@H](C(C)C)NC(=O)[C@H](Cc4ccc(O)cc4)NC(=O)[C@H](CC(N)=O)NC(=O)[C@H](Cc4c[nH]cn4)NC(=O)[C@H](CO)NC(=O)[C@H](CCC(N)=O)NC(=O)[C@@H](NC(=O)CN)CSSC[C@H](NC(=O)CNC(=O)[C@H](C)NC1=O)C(=O)N[C@@H](C(C)C)C(=O)N3)C(=O)N[C@@H](CCCCN)C(=O)N[C@@H](CCC(N)=O)C(=O)N[C@@H](CC(=O)O)C(=O)N[C@@H](CO)C(=O)N[C@@H](CC(=O)O)C(=O)N2,LRP6 E1 domain,binding,SPR,pH 7.5,,,0.00296 µM
